Published values collected from several papers.
Each numbered part is a random draw from the data of one study; scales do not carry over between parts.

Series 1
Target: Ras GTPase-activating protein-binding protein 1, RRM domain (G3BP1, Homo sapiens, UniProt Q13283)
UniProt Q13283, sequence (whole entry, looked up): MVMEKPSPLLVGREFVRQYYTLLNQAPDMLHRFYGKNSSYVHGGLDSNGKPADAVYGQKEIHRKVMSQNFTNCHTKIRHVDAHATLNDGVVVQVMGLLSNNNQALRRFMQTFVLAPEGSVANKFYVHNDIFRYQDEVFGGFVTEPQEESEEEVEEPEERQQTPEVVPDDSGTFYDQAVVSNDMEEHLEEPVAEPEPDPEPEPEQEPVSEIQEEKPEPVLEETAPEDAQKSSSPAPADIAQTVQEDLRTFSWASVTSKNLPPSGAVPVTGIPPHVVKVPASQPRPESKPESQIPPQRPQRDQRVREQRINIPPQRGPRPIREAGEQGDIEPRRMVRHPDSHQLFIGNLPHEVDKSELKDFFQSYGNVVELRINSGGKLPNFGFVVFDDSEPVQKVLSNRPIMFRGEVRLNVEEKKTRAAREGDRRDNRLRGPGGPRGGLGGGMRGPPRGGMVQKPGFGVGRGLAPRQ
Technique: RNA Bind-n-Seq
Form: RNA
Matrix: in vitro
Concentration: 1 µM
Notes: whole 134-nt RNA, ends assumed
Together with: 150 mM KCl
Relative to: input library
Direction: higher = stronger binding
Quantity: log2 enrichment
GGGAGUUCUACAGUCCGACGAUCUGGGAGGUGGAUUUUGUUUAUUUUUUUAGCUCUUUUCCAGGGGUGGGAAUUUUUUUUUAAUAUGUGUCAUGAAUAAAGUUGUUUUUGAAAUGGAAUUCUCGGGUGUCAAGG: 1.43
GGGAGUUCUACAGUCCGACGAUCACCAUGCAGGUGGGCAUCUUUGGGAAGUGGGGCAAGGGGGGGAUAGGGAGGGGGGUAACACUUUGGGAACAGGUGGUCCCAGGUCAUUUCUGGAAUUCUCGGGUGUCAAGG: 0.881
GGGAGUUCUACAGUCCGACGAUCUCCUGUGCUACACAUCGUAUGUACCGAAUCGGGAAAAAAAGGGUUUGGGAAAAAAAGGGAAAGUAUUAUGUUACGCCGUUCGGAUCUGCAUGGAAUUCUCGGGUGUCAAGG: -0.00899
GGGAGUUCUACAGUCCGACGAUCACCAUGCAGGUGGGCAUCUUUGGGAAGUGGGGCAAGGGGGGGAUAGGGAGGGGCGUAACACUUUGGGAACAGGUGGUCCCAGGUCGUUUCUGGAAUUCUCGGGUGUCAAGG: 0.932
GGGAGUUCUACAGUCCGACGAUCUGGCCCUGGUGGCAUGCGGGGAGCAAGAGGUGGCCUCAUGGAUCGUGGUGGUCCCGGUGGAAUGUUCAGAGGUGGCCGUGGUGGAGACAGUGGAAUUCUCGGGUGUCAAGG: 0.995
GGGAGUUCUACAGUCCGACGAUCACCCUGCAGGUGGGCAUCUUUGGGAAGUGGGGCAAGGGGGGGAUAGGGAGGGGGGUAACACUUUGGGAACAGGUGGUCCCAGGUCGUUUCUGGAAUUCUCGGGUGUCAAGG: -0.48

Series 2
Target: RING finger protein unkempt homolog, zinc fingers 1-6, SBP tag (UNK, Homo sapiens, UniProt Q9C0B0, residues 30-357)
UniProt Q9C0B0, sequence (30-357, looked up): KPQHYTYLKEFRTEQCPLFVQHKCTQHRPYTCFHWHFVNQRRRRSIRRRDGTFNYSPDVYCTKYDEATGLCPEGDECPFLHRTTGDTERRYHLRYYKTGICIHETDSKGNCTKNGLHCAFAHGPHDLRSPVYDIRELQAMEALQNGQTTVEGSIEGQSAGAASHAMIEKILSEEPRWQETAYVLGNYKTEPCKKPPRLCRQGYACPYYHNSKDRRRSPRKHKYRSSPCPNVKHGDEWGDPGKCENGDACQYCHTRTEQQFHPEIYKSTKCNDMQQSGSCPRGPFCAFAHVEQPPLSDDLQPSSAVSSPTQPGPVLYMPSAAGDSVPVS
Technique: RNA Bind-n-Seq
Form: RNA
Matrix: in vitro
Concentration: 100 nM
Notes: RNA with constant flanks, vertebrate orthologous sites, ends assumed
Relative to: input RNA pool
Direction: higher = stronger binding
Quantity: bound/input enrichment
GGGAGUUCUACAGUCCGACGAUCGCUACAGAGGGAAGAGCUCACGAACUCAAAGGAAAGCUAGUAAAGAGCUUCUAAUAAAGCUAGGAAAGAUAAGGACAAUUUUACAAAUGAGCAAUUAGAAAUAAAAGAAAAAGGAUAUGGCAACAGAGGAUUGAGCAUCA: 0.893 ratio
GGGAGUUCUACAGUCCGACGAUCGUGAGGGUCUACUGACCACUCACUAUUAUGUCUGGUAUCUGUAAACACUCUUUUUGUUCUUAGUCUUUCUCUUGUAUAAUUGAUGUCCUUUAAAAUUGUUAAUGUAUAACAGGGCUUAUACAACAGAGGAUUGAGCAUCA: 0.974 ratio
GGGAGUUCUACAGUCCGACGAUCAGUAGUUUAAAGCUUGUUUGCACAGUUCUUUUUUUCCAUUGGAAAUGGAAUUCAUUGCCUUAGGUCUUUUUAAAUAGUGUAUUAUCGUUGGGGCUGGCUCUAUGCUUGAAAACCAGUUUACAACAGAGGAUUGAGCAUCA: 2.54 ratio
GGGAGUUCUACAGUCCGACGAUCAAUUUUUAAAAGUUUUUUAAUUUAAUUUUUCCUUUUGGGAGUAAAGUUUGCUCUACCAAAUAGUGAUUGUAACAAACUGAUCUGUUUUGGAUGUUGCUAUAGUGACAUGCAGUUAUAUAUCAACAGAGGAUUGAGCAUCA: 0.321 ratio
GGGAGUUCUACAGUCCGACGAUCCCUUCAACUUGUUCUAGCUGAUGAUCCUUCCAAGUUGGGUCAGGCAUUAGUGCUAGGUACGAACAAUGUUCAUUUCUCUGUUGCCAUUGAUCAGAGACAGACAUUAAAAACAGUCAUAUACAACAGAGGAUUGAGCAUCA: 0.517 ratio
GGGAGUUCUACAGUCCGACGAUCCAGGGUGGGACCUGGGCCCCACCGCUCAGUGGCCCACUGGCCGUCUCAGCCAAGCCACUUUAGGUCCAUUUUUUAUUUUAACAAUGCUCUUCCAACCUGUGCAUAAGCCUGAGAUUUGGACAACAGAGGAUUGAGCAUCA: 1.32 ratio
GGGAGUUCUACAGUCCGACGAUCCAUUACUGUUAAGCACUGUGUUCCAGACCGUGUCUGACUAGUGUAACCUAGGAGAUUUUAUAGUUUUAUUCUAAUGAAAUCCUGAUUGAUGCAGAGCAGUGGGGAGAAUGGUCCCUUUUACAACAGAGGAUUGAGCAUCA: 1.63 ratio
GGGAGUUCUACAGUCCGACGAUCAACAGCAUAAGCUGUUUAAGCUGUGGGAAAAUGAGCUUUGCUUUUUUUUAUAUAUUUAAAUAGGAUACUUUUGUAUGAUGGGUGCUUUGAGUACGAAUGCAGCAGGCUCUCUAUUUCAGACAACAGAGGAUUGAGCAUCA: 0.783 ratio

Series 3
Target: RNA binding protein fox-1 homolog 2, RRM domain, GST-SBP tag (RBFOX2, Homo sapiens, UniProt O43251-10, residues 100-194)
Technique: RNA Bind-n-Seq
Form: RNA
Matrix: in vitro
Concentration: 365 nM
Notes: natural RNA segment, single round, ends assumed
Relative to: no-protein control
Direction: higher = stronger binding
Quantity: RBNS enrichment (R)
Construct (chain): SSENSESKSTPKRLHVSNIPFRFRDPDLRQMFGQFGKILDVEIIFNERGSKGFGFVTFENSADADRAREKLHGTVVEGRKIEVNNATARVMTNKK
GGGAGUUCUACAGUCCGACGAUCUGCUUGGAGCUAUCUCUACAUUUAGUGAAUUUCUUGUAAAACACUUUGAGAUACAUUGUUUUGGAAAUUCAUACAAUUUUCUCAACAUUGUAUUCUACUGACAGGAUGCGUGGAAUUCUCGGGUGCCAA: 0.284
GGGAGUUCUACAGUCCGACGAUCCCCACAAAGAGCCCAUCUGAGAGAAGGACGUGGUGGAGCCAGGACGGGAAAGCGUCCUGUCGGCUGGCCAUGCUGUUGCUUGCGUCUCGAAUCUUCGGUUCUCGAGGAAGUGGAAUUCUCGGGUGCCAA: 1.08
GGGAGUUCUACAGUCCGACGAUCCUGUCUUCCAGGACACAUUUUUAGAUACUCUGACAGGCCACUGCAUCUCAGAUUCAGGGGAGAAAAUAAGUUGUCACCUCCCCUUCAAAGUUCCAGAGUAAACAAAUGGUUGGAAUUCUCGGGUGCCAA: 1.22
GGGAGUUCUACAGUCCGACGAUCUGAGGAUGUGUGUAGCUCAGUUGGUAGACUGAUUGCCCUACAUGAACGGGACUGAAUUUGAUCACCAGCCCCACAAACCAUUCUCAAUGGUCAAUGGUUGUAAUCCCAGCUGGAAUUCUCGGGUGCCAA: 1.28
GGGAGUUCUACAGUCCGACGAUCGUGGGCUAGUCACCAAAGGAUGAAGUUCAGCACGUGGGACAGAGAUAACGACAAUUACCAAGGAAACUGUGCUGAGGAAGAGCAGUCUGGCUGGUGGUUUAACAGGUGUCUGGAAUUCUCGGGUGCCAA: 0.757
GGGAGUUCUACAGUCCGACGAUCACCAUCAUACUGACACUCUUUUCCUUUAGGAAACCCUCACUGACUGACCUAGGGAGCCCUACGAAGUUGUUAACACAGUACUUCUUAGCAUUCCUACGUUAUCCAUAUGUUGGAAUUCUCGGGUGCCAA: 0.235
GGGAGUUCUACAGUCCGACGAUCCUCCCUGGACCAUAGAAGAGAUGUCACUCCUCUCUGGGUUUUAGUGGAGGGAGGGAGGCCUUCCAUUUAGGGCAAGAGCCAGGCAUAAACUCCCUUCCAGAAUUUGUAGCUGGAAUUCUCGGGUGCCAA: 0.345
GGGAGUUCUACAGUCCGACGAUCAGAAACUUUGCCAACCUGUUAGUGUACACACACUGAGGGGAGUGCUCCCGGUGAAUAUUAUCAUAGGGCUUUAUUAUAUUCUUGGUCUUCAUUUCUGAUCAAGUAAAUACUGGAAUUCUCGGGUGCCAA: 0.305

Series 4
Target: Prothrombin, mature alpha-thrombin (F2, Homo sapiens, UniProt P00734)
Technique: aptamer microarray, sandwich
Form: DNA with 2'F-ANA
Matrix: in vitro
Concentration: 200 nM
Notes: whole 15-mer aptamer, many near background
Together with: Cy3 exosite-II aptamer, 400 nM
Direction: higher = stronger binding
Quantity: mean fluorescence intensity
Sequence: GGTTGGTGTGGTTGG
2'F-ANA at 2 4 6 7 9 11: 205 a.u.
2'F-ANA at 1 5 7 8 13 14 15: 53.6 a.u.
2'F-ANA at 1 2 4 5 6 7 11 12 14 15: 50.4 a.u.
2'F-ANA at 5 6 8 15: 81.3 a.u.
2'F-ANA at 1 3 5 7 9 10 12 14 15: 42.8 a.u.
2'F-ANA at 1 7 8 11 12: 383 a.u.
2'F-ANA at 1 2 3 4 7 8 10 13 14 15: 86.7 a.u.
2'F-ANA at 1 4 7 10 12 14: 46.6 a.u.
2'F-ANA at 3 6 7 9 11 13 14 15: 506 a.u.
2'F-ANA at 2 4 7 12 13: 456 a.u.
2'F-ANA at 1 5 6 7 8 11 14: 47.2 a.u.
2'F-ANA at 1 5 7 10 12 14: 43.9 a.u.
2'F-ANA at 1 4 9 12 13 15: 164 a.u.
2'F-ANA at 1 4 6 7 8 9 12 14 15: 58.6 a.u.
2'F-ANA at 4 5 9 12 14: 48.7 a.u.
2'F-ANA at 1 3 4 5 8 9 13 14 15: 149 a.u.

A few entries again (series 4):
2'F-ANA at 1 2 3 4 7 8 10 13 14 15: 86.7 a.u.
2'F-ANA at 1 5 7 8 13 14 15: 53.6 a.u.
2'F-ANA at 1 4 9 12 13 15: 164 a.u.
2'F-ANA at 2 4 7 12 13: 456 a.u.
2'F-ANA at 4 5 9 12 14: 48.7 a.u.
